Results collected from several papers.
Each numbered part is a random draw from the data of one study; scales do not carry over between parts. Values joined by “and” are separate records of one study, mostly repeats; a detail may differ.
Sequence of UniProt Q16513 (whole entry, looked up): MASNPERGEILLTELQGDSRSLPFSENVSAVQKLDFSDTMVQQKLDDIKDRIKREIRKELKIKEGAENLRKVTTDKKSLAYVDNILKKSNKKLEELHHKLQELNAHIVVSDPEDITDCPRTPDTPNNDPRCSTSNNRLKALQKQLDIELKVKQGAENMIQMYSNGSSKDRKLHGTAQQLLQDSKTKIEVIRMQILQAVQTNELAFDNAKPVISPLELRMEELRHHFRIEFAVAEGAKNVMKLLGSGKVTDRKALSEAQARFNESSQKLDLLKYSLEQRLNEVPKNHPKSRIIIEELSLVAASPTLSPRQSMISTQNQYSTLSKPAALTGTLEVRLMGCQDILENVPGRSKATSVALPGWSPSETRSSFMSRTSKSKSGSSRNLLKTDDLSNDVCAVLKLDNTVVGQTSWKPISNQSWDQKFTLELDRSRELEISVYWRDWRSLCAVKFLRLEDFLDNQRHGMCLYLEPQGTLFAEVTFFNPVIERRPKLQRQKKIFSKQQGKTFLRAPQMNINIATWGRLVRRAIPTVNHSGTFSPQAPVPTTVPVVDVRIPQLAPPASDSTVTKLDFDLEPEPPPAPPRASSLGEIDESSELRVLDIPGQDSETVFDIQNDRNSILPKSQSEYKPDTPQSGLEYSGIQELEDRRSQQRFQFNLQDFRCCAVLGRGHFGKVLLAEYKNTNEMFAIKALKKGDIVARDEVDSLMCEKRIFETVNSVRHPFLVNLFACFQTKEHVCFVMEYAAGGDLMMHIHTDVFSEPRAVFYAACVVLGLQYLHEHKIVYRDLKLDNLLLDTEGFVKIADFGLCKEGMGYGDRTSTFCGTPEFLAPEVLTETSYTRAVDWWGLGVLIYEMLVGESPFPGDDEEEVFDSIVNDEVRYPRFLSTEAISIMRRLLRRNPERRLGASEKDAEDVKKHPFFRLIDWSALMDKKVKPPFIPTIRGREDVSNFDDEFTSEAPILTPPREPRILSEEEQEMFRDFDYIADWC
Sequence of UniProt O14965 (whole entry, looked up): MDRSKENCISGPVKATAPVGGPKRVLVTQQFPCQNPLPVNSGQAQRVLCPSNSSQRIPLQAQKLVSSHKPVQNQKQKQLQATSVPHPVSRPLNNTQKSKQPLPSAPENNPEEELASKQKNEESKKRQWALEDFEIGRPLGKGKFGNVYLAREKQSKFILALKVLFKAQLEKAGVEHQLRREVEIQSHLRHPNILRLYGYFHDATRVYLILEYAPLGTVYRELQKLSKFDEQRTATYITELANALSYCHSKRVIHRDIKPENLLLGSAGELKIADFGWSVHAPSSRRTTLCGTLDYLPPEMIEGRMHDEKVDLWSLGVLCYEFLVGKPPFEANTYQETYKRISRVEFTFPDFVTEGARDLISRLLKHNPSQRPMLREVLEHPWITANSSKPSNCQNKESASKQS
Sequence of UniProt Q9Y2U5 (whole entry, looked up): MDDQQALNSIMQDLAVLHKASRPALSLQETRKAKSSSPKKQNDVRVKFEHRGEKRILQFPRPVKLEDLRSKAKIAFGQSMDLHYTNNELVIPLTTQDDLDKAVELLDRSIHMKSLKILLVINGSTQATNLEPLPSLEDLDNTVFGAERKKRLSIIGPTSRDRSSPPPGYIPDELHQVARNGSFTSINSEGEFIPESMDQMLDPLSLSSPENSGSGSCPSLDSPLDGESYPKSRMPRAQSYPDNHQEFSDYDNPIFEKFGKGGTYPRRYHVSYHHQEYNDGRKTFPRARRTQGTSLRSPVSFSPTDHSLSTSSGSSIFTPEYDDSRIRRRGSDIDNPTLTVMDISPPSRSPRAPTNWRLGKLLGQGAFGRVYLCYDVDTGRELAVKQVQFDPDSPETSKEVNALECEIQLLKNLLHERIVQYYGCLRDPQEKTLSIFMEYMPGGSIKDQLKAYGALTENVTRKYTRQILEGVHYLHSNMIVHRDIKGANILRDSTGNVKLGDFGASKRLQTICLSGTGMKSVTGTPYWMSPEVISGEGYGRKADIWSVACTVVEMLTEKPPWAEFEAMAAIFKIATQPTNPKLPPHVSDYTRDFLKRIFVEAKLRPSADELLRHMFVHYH
Sequence of UniProt P19784 (whole entry, looked up): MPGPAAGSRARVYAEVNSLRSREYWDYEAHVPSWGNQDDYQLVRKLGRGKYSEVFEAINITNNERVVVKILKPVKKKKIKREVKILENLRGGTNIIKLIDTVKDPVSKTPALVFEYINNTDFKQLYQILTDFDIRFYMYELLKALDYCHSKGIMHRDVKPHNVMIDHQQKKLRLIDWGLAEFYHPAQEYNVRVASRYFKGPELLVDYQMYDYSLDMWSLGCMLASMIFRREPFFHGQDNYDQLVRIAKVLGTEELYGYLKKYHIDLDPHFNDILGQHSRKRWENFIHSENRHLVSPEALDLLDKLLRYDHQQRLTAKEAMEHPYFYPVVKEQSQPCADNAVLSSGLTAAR
Sequence of UniProt Q8TDC3 (whole entry, looked up): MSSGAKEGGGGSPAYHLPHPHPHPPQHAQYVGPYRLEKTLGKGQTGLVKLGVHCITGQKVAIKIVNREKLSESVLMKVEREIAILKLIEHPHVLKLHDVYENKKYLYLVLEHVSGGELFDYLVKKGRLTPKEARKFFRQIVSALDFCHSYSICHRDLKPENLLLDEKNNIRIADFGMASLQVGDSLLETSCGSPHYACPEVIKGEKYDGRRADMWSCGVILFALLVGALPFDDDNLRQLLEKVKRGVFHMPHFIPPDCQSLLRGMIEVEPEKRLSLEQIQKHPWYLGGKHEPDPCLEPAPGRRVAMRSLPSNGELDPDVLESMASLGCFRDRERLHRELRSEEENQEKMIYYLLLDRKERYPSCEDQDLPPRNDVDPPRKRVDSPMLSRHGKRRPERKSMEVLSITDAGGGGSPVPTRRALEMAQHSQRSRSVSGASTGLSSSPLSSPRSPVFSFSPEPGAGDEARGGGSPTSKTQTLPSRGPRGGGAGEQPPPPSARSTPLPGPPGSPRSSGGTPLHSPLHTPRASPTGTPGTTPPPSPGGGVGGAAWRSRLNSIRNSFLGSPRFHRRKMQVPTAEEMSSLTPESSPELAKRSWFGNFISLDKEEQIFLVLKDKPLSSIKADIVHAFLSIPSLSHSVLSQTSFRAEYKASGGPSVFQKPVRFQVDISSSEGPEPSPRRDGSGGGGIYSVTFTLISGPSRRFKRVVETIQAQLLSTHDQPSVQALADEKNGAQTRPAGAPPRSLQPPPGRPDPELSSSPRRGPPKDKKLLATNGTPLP
Sequence of UniProt P07949 (whole entry, looked up): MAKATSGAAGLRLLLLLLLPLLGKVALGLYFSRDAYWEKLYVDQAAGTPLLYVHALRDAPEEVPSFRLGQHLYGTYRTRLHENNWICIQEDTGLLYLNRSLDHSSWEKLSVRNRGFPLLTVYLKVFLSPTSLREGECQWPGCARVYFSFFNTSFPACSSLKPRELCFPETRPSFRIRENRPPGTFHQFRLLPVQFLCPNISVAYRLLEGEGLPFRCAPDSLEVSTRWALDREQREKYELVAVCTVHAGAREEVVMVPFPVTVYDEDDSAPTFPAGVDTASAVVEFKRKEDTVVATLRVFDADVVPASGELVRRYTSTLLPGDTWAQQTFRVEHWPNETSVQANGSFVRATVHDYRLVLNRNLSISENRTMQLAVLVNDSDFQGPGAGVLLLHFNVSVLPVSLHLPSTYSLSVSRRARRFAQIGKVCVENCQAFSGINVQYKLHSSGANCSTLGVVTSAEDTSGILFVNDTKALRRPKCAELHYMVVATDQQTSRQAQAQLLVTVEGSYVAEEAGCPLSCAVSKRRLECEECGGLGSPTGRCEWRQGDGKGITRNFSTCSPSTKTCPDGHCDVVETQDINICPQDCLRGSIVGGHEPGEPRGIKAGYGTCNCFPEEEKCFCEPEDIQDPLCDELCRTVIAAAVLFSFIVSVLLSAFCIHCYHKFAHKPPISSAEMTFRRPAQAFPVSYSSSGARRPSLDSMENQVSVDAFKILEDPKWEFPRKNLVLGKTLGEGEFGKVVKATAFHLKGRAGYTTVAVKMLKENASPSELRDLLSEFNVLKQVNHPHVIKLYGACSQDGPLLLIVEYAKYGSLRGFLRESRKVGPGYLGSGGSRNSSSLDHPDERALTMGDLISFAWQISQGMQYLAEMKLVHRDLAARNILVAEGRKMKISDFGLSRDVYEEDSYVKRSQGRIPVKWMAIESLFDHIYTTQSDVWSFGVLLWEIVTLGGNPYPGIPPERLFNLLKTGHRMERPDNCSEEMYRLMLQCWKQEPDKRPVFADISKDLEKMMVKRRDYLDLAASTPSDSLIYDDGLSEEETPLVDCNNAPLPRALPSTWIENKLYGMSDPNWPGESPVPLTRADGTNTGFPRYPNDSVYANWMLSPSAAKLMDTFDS
Sequence of UniProt P34947 (whole entry, looked up): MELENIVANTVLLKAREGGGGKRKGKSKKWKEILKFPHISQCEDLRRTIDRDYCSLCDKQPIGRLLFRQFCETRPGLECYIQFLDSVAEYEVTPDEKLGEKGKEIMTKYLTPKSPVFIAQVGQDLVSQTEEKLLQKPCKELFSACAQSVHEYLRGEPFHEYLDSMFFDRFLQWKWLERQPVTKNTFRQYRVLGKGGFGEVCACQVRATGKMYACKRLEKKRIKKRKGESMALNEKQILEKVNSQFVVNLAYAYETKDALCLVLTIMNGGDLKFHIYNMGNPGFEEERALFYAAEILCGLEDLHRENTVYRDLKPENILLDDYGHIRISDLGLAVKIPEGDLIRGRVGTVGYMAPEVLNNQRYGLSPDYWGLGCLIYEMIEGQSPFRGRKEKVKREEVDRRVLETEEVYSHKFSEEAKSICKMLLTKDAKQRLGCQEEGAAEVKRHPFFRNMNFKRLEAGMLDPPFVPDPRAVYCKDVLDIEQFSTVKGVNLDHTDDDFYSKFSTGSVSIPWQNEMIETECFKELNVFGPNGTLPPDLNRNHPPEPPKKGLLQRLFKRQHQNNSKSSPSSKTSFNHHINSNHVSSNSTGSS

Block 1
Structure (SMILES): CC(C)C(=O)N1CCN(c2nc(OC[C@@H]3CCCN3C)nc3c2CCN(c2cccc4cccc(Cl)c24)C3)C[C@@H]1CC#N
Effect on: binding
Mode: competitor
Technique: NanoBRET
Cell line: HEK293
KRAS Q61H: GTPase KRas (KRAS, Homo sapiens, UniProt P01116, Q61H)
KRAS Q61R: GTPase KRas (KRAS, Homo sapiens, UniProt P01116, Q61R)
KRAS G12D: GTPase KRas (KRAS, Homo sapiens, UniProt P01116, G12D)
KRAS G13D: GTPase KRas (KRAS, Homo sapiens, UniProt P01116, G13D)
target | conditions | normalized BRET
KRAS Q61H | 11.1 µM | 87.1% and 75.9% and 79.3%
GTPase KRas (KRAS, Homo sapiens, UniProt P01116, Q61L) | 15.2 nM | 96.8% and 102% and 92.8%
KRAS Q61R | 412 nM | 104% and 91% and 103%
KRAS G12D | 33.3 µM | 136% and 111% and 133%
KRAS Q61R | 45.7 nM | 105% and 104% and 89%
KRAS Q61H | 3.7 µM | 91.8% and 90.9% and 89.5%
KRAS G13D | 11.1 µM | 76.8% and 79.2% and 89.2%
KRAS Q61H | 1.24 µM | 91% and 105% and 92.7%
KRAS Q61R | 5.08 nM | 90.3% and 111% and 100%
KRAS G12D | 412 nM | 95.8% and 89.9% and 102%
KRAS G13D | 3.7 µM | 97.6% and 88.8% and 88.9%

Block 2
Cell line: mouse MPNST tumor cells
Technique: high-content nuclear imaging
Measured: cell number
Concentration: 10 µM
Time: 12 h
Notes: mean of 2 replicates
Reference: plate mean
Direction: higher = more cells
SMILES | nuclei count
CN(Cc1ccccc1)C(=O)[C@H](Cc1ccc2ccccc2c1)NC(=O)[C@@H]1CCCN1C(=O)Nc1ccccc1[N+](=O)[O-] | 3.47 z-score
O=C(O)c1cc(=O)c2ccccc2[nH]1 | -1.19 z-score and 0.541 z-score
CCC(=O)OCC(=O)[C@@]1(OC(=O)CC)[C@@H](C)C[C@H]2[C@@H]3CCC4=CC(=O)C=C[C@]4(C)[C@@]3(Cl)[C@@H](O)C[C@@]21C | 1.17 z-score
O=C1NCCN1c1ncc([N+](=O)[O-])s1 | 2.17 z-score
CCc1oc2ccccc2c1C(=O)c1cc(Br)c(O)c(Br)c1 | 1.19 z-score
COc1cc(OC)c(NC(=O)Nc2cc(C)on2)cc1Cl | 2.27 z-score
CC1CCc2nc(N)c(C#N)c(-c3cccnc3)c2C1 (stereo not drawn) | 1.82 z-score
CC(C)c1ccc(Cn2ccc3c4c(N)nc(NC5CC5)nc4ccc32)cc1 | -6.3 z-score
CN(C)CCOC(c1ccccc1)c1ccccc1 | 2.28 z-score
Cc1c(N(C)CS(=O)(=O)O)c(=O)n(-c2ccccc2)n1C | 1.32 z-score

Block 3
Cell line: normal-adjacent organoid sample F
Technique: CellTiter-Glo
Concentration: 1 µM
Notes: replicate mean
Reference: DMSO
SMILES | viability
CNc1nc(-c2ccc3c(N)n[nH]c3c2)cc(N2C[C@@H](C(=O)NC3CCCCC3)CC[C@H]2C)n1 | 105%
CN(C)C(=O)Cn1cc(-c2ccc(-c3cncc4ccccc34)cc2)cn1 | 111%
Cc1c(NC(=O)c2cc(C(N)=O)nc3cc(F)ccc23)c(C(F)(F)F)nn1Cc1ccc(C#N)cc1 | 29.1%
Cc1noc([C@H]2C[C@@H](c3ccc(C(F)(F)F)cc3)CN(C(=O)N3CCS(=O)(=O)C3)C2)n1 | 100%
Cc1nc(C2CCN(C(=O)c3ccc(OC(F)(F)F)cc3N)CC2)c2ncc(N3CCN(C)CC3)cc2n1 | 108%
C[C@@H](NC(=O)Nc1cc2[nH]ncc2c(CO)n1)c1ccccc1 | 99.7%
Cn1cncc1[C@@](O)(COc1ccc(C#N)cc1-c1ccc(OC(F)(F)F)cc1)c1ccc(C#N)cc1 | 107%
O=C(NNS(=O)(=O)c1ccccc1F)c1cc(F)cc(-c2ccccn2)c1 | 70.4%
C[C@H](c1ccc(F)cc1)N(Cc1ccc(Cl)c(C(=O)O)c1)C(=O)c1cnc2ccccc2c1 | 99.5%
CN1CCN(Cc2ccc(Nc3ncc(Cl)c(Nc4ccccc4S(=O)(=O)N(C)C)n3)cc2)CC1 | 0.5%

Block 4
SMILES: O=C(Nc1ccc(Cl)cc1)c1ccccc1NCc1ccncc1
Effect on: enzyme activity
Mode: inhibitor
Concentration: 0.5 µM
Reference: control
target | remaining activity
ROS1 (Homo sapiens, UniProt P08922) | 100%
Aurora kinase A (AURKA, Homo sapiens, UniProt O14965) | 84.4%
ROCK2 (Homo sapiens, UniProt O75116) | 93.8%
MAPK10 (Homo sapiens, UniProt P53779) | 89.9%
GRK5 (Homo sapiens, UniProt P34947) | 97.3%
MAP3K8 (Homo sapiens, UniProt P41279) | 105%
SLK (Homo sapiens, UniProt Q9H2G2) | 86.6%
DMPK (Homo sapiens, UniProt Q09013) | 103%
BRSK1 (Homo sapiens, UniProt Q8TDC3) | 94%
CDK7 (Homo sapiens, UniProt P50613) | 95.1%
HIPK3 (Homo sapiens, UniProt Q9H422) | 98.7%
PRKD1 (Homo sapiens, UniProt Q15139) | 93.2%
RET (Homo sapiens, UniProt P07949) | 58.9%
PTK2B (Homo sapiens, UniProt Q14289) | 89.3%
CSNK2A2 (Homo sapiens, UniProt P19784) | 98.3%
PKN2 (Homo sapiens, UniProt Q16513) | 93.2%
Cyclin-dependent kinase 2, with cyclin A (CDK2, Homo sapiens, UniProt P24941) | 92.2%
DYRK4 (Homo sapiens, UniProt Q9NR20) | 104%
CAMK1G (Homo sapiens, UniProt Q96NX5) | 101%
NTRK3 (Homo sapiens, UniProt Q16288) | 97%
MAP3K2 (Homo sapiens, UniProt Q9Y2U5) | 92.8%
CAMK1D (Homo sapiens, UniProt Q8IU85) | 95.3%
NEK9 (Homo sapiens, UniProt Q8TD19) | 91.2%

Excerpt of the above (block 4):
target | remaining activity
SLK (Homo sapiens, UniProt Q9H2G2) | 86.6%
DMPK (Homo sapiens, UniProt Q09013) | 103%
BRSK1 (Homo sapiens, UniProt Q8TDC3) | 94%
CDK7 (Homo sapiens, UniProt P50613) | 95.1%
HIPK3 (Homo sapiens, UniProt Q9H422) | 98.7%
PRKD1 (Homo sapiens, UniProt Q15139) | 93.2%
RET (Homo sapiens, UniProt P07949) | 58.9%
PTK2B (Homo sapiens, UniProt Q14289) | 89.3%
